Measured values collected from several papers.
Lines come from different studies, so protocols differ. Values joined by “and” are separate records of one study, mostly repeats; a detail may differ. ± marks the error that the study gave.
ache: Acetylcholinesterase (ache, Electrophorus electricus, UniProt O42275)
Sequence of UniProt O42275 (whole entry, looked up): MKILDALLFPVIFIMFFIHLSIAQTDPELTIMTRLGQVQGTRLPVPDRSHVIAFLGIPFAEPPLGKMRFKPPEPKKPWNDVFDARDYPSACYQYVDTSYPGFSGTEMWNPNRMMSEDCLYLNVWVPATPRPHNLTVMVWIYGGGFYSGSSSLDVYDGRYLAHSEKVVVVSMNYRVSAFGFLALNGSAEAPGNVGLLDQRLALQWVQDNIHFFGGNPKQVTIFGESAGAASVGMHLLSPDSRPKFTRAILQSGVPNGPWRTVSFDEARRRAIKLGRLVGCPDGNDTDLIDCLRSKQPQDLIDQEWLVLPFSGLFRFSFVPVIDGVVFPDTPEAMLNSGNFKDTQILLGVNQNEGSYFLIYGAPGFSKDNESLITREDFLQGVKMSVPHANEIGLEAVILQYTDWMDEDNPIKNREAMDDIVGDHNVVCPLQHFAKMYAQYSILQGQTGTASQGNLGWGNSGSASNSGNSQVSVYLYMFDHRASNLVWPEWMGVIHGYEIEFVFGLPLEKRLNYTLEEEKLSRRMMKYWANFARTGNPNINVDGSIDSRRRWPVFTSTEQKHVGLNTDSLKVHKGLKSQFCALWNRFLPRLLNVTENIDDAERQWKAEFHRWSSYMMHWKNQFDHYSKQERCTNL
ADORA3: Adenosine receptor A3 (ADORA3, Homo sapiens, UniProt P0DMS8)
Sequence of UniProt P0DMS8 (whole entry, looked up): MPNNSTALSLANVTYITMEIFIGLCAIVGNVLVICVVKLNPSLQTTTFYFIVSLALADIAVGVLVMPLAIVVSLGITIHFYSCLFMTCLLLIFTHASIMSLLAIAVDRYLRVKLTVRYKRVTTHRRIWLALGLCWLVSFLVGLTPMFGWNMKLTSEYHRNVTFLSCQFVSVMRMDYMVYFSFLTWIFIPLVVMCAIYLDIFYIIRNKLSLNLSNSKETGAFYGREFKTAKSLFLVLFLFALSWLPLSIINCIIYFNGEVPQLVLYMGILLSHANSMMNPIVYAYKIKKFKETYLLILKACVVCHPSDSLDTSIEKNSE
dcp2 with Dcp1: mRNA decapping complex subunit 2, with Dcp1 (dcp2, Schizosaccharomyces pombe, UniProt O13828)
Sequence of UniProt O13828 (whole entry, looked up): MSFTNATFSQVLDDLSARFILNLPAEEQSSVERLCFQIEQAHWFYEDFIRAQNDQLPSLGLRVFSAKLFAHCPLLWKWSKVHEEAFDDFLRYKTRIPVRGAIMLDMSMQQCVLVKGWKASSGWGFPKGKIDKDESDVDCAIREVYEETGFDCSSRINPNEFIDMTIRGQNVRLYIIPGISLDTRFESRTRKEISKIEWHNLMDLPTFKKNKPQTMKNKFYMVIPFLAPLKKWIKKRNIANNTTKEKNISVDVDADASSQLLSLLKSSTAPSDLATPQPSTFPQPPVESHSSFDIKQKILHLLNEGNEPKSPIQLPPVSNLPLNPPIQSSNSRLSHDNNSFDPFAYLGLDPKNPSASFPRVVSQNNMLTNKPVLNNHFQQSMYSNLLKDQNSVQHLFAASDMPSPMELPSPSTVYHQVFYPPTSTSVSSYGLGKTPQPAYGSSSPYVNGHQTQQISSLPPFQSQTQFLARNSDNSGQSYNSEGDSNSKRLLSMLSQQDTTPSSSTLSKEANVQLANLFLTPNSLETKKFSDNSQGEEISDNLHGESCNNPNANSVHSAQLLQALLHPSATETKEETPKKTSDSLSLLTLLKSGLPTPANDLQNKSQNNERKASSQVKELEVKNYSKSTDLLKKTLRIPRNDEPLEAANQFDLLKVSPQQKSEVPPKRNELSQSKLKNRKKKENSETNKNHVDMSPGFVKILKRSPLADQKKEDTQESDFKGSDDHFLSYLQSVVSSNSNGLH
Sequence of UniProt P0A7A9 (whole entry, looked up): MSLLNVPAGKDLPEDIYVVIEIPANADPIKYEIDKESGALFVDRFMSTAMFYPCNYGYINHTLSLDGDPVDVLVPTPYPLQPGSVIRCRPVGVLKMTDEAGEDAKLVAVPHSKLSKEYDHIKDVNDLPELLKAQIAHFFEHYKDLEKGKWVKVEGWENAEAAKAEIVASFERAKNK
Sequence of UniProt P03372 (whole entry, looked up): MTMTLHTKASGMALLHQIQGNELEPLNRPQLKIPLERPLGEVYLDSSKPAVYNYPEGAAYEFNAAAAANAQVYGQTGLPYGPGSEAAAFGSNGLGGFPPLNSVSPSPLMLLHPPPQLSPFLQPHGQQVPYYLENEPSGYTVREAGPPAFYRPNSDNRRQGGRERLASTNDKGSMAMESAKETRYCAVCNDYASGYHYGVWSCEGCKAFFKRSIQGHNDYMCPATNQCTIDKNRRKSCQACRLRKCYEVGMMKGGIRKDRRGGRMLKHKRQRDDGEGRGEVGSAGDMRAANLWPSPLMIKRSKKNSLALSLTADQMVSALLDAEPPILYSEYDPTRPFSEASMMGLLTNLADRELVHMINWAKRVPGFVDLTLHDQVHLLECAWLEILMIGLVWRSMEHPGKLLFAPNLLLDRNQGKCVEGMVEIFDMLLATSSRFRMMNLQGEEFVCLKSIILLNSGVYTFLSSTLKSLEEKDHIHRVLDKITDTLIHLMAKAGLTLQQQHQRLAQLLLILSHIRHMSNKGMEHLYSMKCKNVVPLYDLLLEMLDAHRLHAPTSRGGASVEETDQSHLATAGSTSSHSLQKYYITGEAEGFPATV
Sequence of UniProt P78362 (whole entry, looked up): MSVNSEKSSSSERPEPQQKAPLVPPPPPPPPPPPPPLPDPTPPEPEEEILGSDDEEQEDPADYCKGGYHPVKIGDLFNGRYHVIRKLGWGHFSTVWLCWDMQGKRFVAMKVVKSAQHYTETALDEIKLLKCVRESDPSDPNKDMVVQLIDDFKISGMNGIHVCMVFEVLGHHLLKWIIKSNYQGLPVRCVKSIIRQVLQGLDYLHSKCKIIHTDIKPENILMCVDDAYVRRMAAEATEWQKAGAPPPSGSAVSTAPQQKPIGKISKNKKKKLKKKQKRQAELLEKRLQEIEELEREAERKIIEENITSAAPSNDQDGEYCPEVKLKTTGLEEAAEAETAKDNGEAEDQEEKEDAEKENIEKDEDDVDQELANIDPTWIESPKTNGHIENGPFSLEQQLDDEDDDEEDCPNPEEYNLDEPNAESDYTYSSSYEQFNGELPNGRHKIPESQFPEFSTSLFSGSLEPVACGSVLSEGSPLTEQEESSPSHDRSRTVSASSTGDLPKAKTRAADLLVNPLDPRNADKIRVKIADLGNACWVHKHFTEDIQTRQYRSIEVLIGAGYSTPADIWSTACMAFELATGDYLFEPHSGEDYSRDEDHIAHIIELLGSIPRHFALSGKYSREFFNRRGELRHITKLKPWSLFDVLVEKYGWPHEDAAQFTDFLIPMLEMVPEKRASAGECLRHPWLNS
Sequence of UniProt P32246 (whole entry, looked up): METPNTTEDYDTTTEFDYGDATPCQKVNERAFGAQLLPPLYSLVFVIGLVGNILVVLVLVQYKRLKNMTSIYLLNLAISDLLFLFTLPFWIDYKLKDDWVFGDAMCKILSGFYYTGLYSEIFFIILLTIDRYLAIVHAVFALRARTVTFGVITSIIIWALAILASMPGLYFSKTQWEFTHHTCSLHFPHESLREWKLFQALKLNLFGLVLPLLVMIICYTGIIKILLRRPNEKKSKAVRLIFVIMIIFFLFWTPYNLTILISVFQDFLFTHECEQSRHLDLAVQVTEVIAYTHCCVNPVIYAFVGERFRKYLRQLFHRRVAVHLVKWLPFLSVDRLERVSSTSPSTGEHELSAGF
Sequence of UniProt P00811 (whole entry, looked up): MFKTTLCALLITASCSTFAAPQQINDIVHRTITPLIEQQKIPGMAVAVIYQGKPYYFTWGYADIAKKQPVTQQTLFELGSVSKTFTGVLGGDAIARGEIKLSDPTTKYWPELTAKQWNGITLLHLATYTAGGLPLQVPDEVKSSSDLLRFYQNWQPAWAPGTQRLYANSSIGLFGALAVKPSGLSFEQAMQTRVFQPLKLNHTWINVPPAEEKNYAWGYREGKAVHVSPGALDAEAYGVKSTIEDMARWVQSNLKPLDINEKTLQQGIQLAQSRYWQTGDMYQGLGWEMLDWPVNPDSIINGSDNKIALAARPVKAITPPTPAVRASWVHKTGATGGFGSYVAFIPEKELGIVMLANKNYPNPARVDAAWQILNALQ
Sequence of UniProt O43148 (whole entry, looked up): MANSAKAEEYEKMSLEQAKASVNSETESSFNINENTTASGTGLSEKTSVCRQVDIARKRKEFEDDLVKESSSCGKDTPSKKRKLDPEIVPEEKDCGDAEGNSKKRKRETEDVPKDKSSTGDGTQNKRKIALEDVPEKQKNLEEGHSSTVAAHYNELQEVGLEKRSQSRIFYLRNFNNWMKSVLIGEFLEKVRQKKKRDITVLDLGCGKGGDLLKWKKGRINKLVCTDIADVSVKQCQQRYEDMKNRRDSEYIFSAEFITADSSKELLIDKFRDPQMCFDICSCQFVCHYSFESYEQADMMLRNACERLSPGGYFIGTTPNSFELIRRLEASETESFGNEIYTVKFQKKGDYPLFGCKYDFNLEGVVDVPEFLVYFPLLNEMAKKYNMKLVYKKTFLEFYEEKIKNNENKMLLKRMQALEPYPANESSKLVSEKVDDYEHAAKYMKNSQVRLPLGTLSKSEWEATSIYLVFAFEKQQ
Sequence of UniProt P23975 (whole entry, looked up): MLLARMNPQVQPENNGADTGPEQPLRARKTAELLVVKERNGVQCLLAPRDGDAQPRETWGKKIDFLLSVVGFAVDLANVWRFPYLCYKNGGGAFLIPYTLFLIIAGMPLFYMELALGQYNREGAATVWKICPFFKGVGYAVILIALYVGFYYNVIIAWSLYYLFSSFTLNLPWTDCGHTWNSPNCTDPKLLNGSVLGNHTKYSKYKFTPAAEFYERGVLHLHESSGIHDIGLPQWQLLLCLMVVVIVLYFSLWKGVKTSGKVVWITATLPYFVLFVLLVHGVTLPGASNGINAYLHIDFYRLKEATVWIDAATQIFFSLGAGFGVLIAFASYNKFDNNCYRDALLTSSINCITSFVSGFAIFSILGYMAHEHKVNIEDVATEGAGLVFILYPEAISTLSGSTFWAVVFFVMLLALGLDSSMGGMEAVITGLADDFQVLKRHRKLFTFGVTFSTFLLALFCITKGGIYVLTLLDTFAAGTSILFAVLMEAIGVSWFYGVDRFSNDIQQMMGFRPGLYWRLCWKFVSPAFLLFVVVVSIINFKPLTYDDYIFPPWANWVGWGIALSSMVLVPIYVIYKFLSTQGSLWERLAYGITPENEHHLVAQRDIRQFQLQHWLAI

C[C@@H](O)[C@@H]1NC(=O)[C@@H](NC(=O)CCOCCOCCOCCOCCNC(=O)c2ccc(NN)nc2)CSSC[C@@H](C(=O)O)NC(=O)[C@H](Cc2c[nH]cn2)NC(=O)[C@H](CO)NC(=O)[C@H](Cc2ccccc2)NC(=O)[C@@H]2CCCN2C(=O)[C@H](CO)NC(=O)[C@@H]2CCCN2C1=O [technetium-99m labelled] — tissue uptake (mouse HCT-116 xenograft, muscle; intravenous, 37 MBq, postmortem after imaging): 0.02 ± 0.01 %ID/g
CC(=O)NC[C@@H]1[C@@H](O)C[C@H]2[C@H](O)C[C@@H](CO)N12 — inhibition (human placental β-N-acetylglucosaminidase; 0.0214 µM, run 2, together with: p-nitrophenyl GlcNAc): 32.2%
O=S(=O)(F)CCc1cn(-c2c(F)cccc2F)nn1 — inhibition (ache; Ellman; 20 µM): 6.3 ± 2.8%
O=C(Nc1nccs1)c1c(O)c2c(n(Cc3ccccc3)c1=O)CCCC2 — inhibition (ppa (Escherichia coli, UniProt P0A7A9); inhibitor, counter-screen, coupling enzyme alone; 30 µM): 15.9%
CN[C@@H]1[C@H](O)[C@H](NC)[C@H]2O[C@]3(O)[C@H](O[C@@H]2[C@H]1O)O[C@H](C)C[C@H]3NC(=O)Cc1cc(Cl)ccn1 — inhibition (ADORA3; ligand displacement, radioligand; 10 µM): 9%
CN(C)c1ncnc2c1ncn2[C@@H]1O[C@H](CCl)[C@@H](NC(=O)[C@H](N)CSC(c2ccccc2)c2ccccc2)[C@H]1O — inhibition (Aminopeptidase N (ANPEP, Homo sapiens, UniProt P15144); enzyme activity, inhibitor, fluorescence; 10 µM): 38.9%
CCc1nnc(-c2c(OC)cc(-c3cnc4cc(-c5cnn(C)c5)ccn34)cc2OC)o1 — inhibition (SLC6A2 (Homo sapiens, UniProt P23975); antagonist radioligand, radioligand binding; 10 µM, SafetyScreen44 norepinephrine transporter): -7%
CS(C)(=O)=Nc1ccc(-c2ccc(-c3nc4cc(O[C@@H]5CO[C@H]6[C@@H]5OC[C@H]6O)[nH]c4cc3F)cc2)cc1 — inhibition (RIPK2 (Homo sapiens, UniProt O43353); enzyme activity, inhibitor; 10 µM): 25%
C/C(=N\OCCCN1CCCCC1)c1ccc(C(F)(F)F)cc1 — inhibition (ADORA2A (Homo sapiens, UniProt P29274); antagonist, cAMP; 10 µM): 2.87%
C[C@H](NCc1ccc(-c2ccc(C(F)(F)F)cc2)cc1)C(N)=O — inhibition (MAOB (Homo sapiens, UniProt P27338); enzyme activity, inhibitor; 1 µM): > 90%
Cc1ccc(N2CC3CCC(C2)N3C)cc1C(=O)N[C@H](C)c1cc(-c2cnn(C)c2)nc2ccccc12 — viability (African green monkey cells; 250 µM): 0.766%
O=C1NC2(CC2)COc2ncc(F)cc2[C@H]2COCCN2c2ccn3ncc1c3n2 — organ weight (Sprague-Dawley rat, female, uterus; oral, 5 mg/kg/day, 4 weeks): 0.474 ± 0.093 g
CN(/N=C/c1ccccc1C(=O)O)c1nc(-c2ccccc2Cl)cs1 — inhibition (FYN isoform b; enzyme activity; 1 µM): -9.24%
NC1CC1 — inhibition (ache; enzyme activity, inhibitor, Ellman; 20 µM): 34.4%
C[n+]1cn([C@@H]2O[C@H](COP(=O)(O)NP(=O)([O-])OP(=O)(O)O)[C@@H](O)[C@H]2O)c2nc(N)nc(O)c21 — inhibition (dcp2 with Dcp1; 200 µM, 0.5 h): 15.1%
NCC1CCN(Cc2cccc(F)c2)CC1 — inhibition (ache; enzyme activity, inhibitor, Ellman; 20 µM): 40.7%
COc1ccc(F)cc1S(=O)(=O)Nc1cnc2c(c1)C(=O)NCCO2 — inhibition (protein kinase C (non-selective); enzyme activity; 10 µM): 1%
O=C(NC1CCN(c2ncnc3[nH]cnc23)CC1)c1cccc(NS(=O)(=O)c2ccc(C(F)(F)F)cc2)c1 — inhibition (RNMT (Homo sapiens, UniProt O43148); enzyme activity, inhibitor; 12.5 µM): 3.51%
CN[C@@H]1[C@H](O)[C@H](NC)[C@H]2O[C@]3(O)[C@H](O[C@@H]2[C@H]1O)O[C@H](C)C[C@H]3NC(=O)Cc1ccc(Cl)cn1 — inhibition (Estrogen receptor (ESR1, Homo sapiens, UniProt P03372); ligand displacement, radioligand; 10 µM): -24%
CCOC(=O)[C@](CC)(CCCSCCOCCOCCNC(=O)c1ccc(-c2c3ccc(=N)c(S(=O)(=O)O)c-3oc3c(S(=O)(=O)O)c(N)ccc23)c(C(=O)O)c1)NC(=O)c1ccc(C2CC2)c(Cc2ccc(F)cc2)n1 — inhibition (ADORA3; ligand displacement, radioligand; 10 µM): 77%
Cc1ccc2c(n1)c(-c1cccc(S(C)(=O)=O)c1)c(C)n2C/C(F)=C/CN — inhibition (CCR1 (Homo sapiens, UniProt P32246); ligand displacement, radioligand; 10 µM): -2%
Cc1ccc(N(C)CCN2CCOCC2)cc1C(=O)N[C@H](C)c1cc(-c2cnn(C)c2)nc2ccccc12 — viability (Vero E6; 500 µM): 25.4% and 13.1% and 20.4%
C=CC(=O)Nc1cc(-c2nn(C3CCC(N4CCN(C(C)=O)CC4)CC3)c3ncnc(N)c23)ccc1Oc1ccccc1 (centres unmarked) — inhibition (NUAK1 (Homo sapiens, UniProt O60285); inhibitor, KiNativ profiling; biochemical; 2 µM): 2.7%
O=C(CN1CN(c2ccccc2)C2(CCN(C(=O)c3cnc4[nH]ncc4c3)CC2)C1=O)NCC(F)(F)F — inhibition (WNK1 (Homo sapiens, UniProt Q9H4A3); inhibitor; concentration not given): < 50%
OB(O)c1cnn(-c2cc(Cl)ncn2)c1 — inhibition (Beta-lactamase (ampC, Escherichia coli K-12, UniProt P00811); enzyme activity; 5 x IC50, no preincubation): ~80%
CN(C)[C@H]1C[C@@]23CC[C@@]4(O2)C(=CC[C@]2(C)[C@@H](c5ccc6ccncc6c5)CC[C@H]24)C=C3[C@@H](O)[C@@H]1O — inhibition (MAP3K21 (Homo sapiens, UniProt Q5TCX8); ATP probe labelling, inhibitor, KiNativ profiling; 1 µM): 14.9%
CCc1nc2ccc(C(=O)NCCCn3ccnc3)cn2c1N(C)Cc1ccc(N(C)C)cc1 — inhibition (ache; enzyme activity, inhibitor, Ellman; 5 µM): 78%
CC(C)[C@H]1NC(=O)C[C@H]2/C=C/CCSSC[C@@H](NC1=O)C(=O)N[C@H](Cc1cccc3ccccc13)C(=O)NCC(=O)O2 — inhibition (SRPK2 (Homo sapiens, UniProt P78362); enzyme activity, inhibitor; 10 µM): 0.8%
C[n+]1cn([C@@H]2O[C@H](COP(=O)([S-])OP(=O)(O)OP(=O)(O)OP(=O)([S-])OC[C@H]3O[C@@H](n4c[n+](C)c5c(O)nc(N)nc54)[C@H](O)[C@@H]3O)[C@@H](O)[C@H]2O)c2nc(N)nc(O)c21 (mixture of isomers) — inhibition (dcp2 with Dcp1; 200 µM, 0.5 h): 48.2 ± 22.1%
O=C(O)c1ccccc1/C=N/Nc1nc(-c2ccccc2Cl)cs1 — inhibition (LYNb; enzyme activity; 1 µM): 13.8%
C[n+]1cn([C@@H]2O[C@H](COP(=O)(O)OP(=O)([O-])OP(=O)(O)O)[C@@H](O)[C@H]2O)c2nc(N)nc(O)c21 — inhibition (dcp2 with Dcp1; 200 µM, 0.25 h): 0.8%
N[C@H](C(=O)N1CCCC1)C1CCN(c2nccc3c(-c4ncc(Cl)cc4Cl)cccc23)CC1 — inhibition (GABA-A receptor alpha1; binding, radioligand binding; 10 µM): -14%
